Published values collected from several papers.
Values joined by “and” are separate records of one study, mostly repeats; a detail may differ. Numbers after ± are the reported error.
ALB: Albumin (ALB, Homo sapiens, UniProt P02768)

SMILES	target	test	test system	conditions	how to read	quantity	result
C[C@@H](c1ccc(-n2cnc3c(N)ncnc32)cc1)N1CCc2nn(C)c(Cc3ccccc3)c2C1=O	Serine/threonine-protein kinase ULK1 (ULK1, Homo sapiens, UniProt O75385)	KINOMEscan		0.1 µM	relative to: DMSO control	remaining binding	68%
N#Cc1ccn2c(-c3ccncc3)c(-c3ccc(F)cc3)nc2c1	Carbon catabolite-derepressing protein kinase (SNF1, Candida albicans, UniProt P52497)	kinase binding, competitor, MIB/MS competition, measured: SNF1	Candida albicans cell lysate	100 nM	relative to: DMSO	log2 fold change	-0.164
Nc1nc2c(ncn2[C@@H]2O[C@H](COP(=O)(O)O)[C@@H](O)[C@H]2O)c(=O)[nH]1	GUK1, part: ATPγS-bound (Homo sapiens, UniProt Q16774)	binding, ITC		added: ATPγS 0.5 mM		-TΔS	9.08 kcal/mol and 8.63 kcal/mol and 10 kcal/mol
NC/C(=C\F)COc1cccc(Cn2c(=S)[nH]c(=O)c3[nH]cnc32)c1	Amine oxidase copper-containing 3 (Canis lupus familiaris, UniProt A0A8I3MYY3)	inhibitor	dog adipose tissue	0.1111 µM		inhibition	105%
CCC1(O)CCCN(C(=O)c2ccc(-c3ccc(F)c(NC(=O)CCl)c3)cc2)C1 (stereo not drawn)	DNA dC->dU-editing enzyme APOBEC-3A (Homo sapiens, UniProt P31941)	covalent modifier, intact protein mass spectrometry, measured: adduct +26691 Da		125 µM, 1 h, 5-fold molar excess		protein adduct	0%
CC1=CCCC(C)(C)C1/C=C/C(C)O (stereo not drawn)	uncharacterized protein (Spodoptera exigua, UniProt F1CEY0)	binding, 1-NPN competitive displacement		protein 2.0 µM, added: 1-NPN 20 µM	relative to: 1-NPN without compound, lower = stronger binding	relative fluorescence	74%
Nc1ncnc2c1ncn2[C@@H]1O[C@H](COP(=O)(O)CP(=O)(O)OP(=O)(O)O)[C@@H](O)[C@H]1O	P2X purinoceptor 1 (P2RX1, Homo sapiens, UniProt P51575, K136A)	saturation binding	HEK293	1 nM		specific binding	106 CCPM and 83.5 CCPM
O=C(COP(=O)(O)O)[C@@H](O)[C@H](O)[C@H](O)COP(=O)(O)O	Small ribosomal subunit protein uS5 (Homo sapiens, UniProt P15880)	thermal proteome profiling, measured: RPS2	HepG2 cell lysate	concentration not given, 57 over 37 °C, mean	relative to: compound over control	thermal stability ratio	0.634
OC[C@H]1O[C@@H](Oc2cc3c(O)cc(O)cc3[o+]c2-c2ccc(O)c(O)c2)[C@H](O)[C@@H](O)[C@@H]1O	ALB	binding, visible absorption		50 µM, pH 7, added: HSA up to 200 µM	relative to: without HSA	bathochromic shift	58 nm
Cc1cc(-c2ccnc3[nH]cc(F)c23)cc(F)c1[C@@]1(O)[C@H](C)CN(C(=O)CN)C[C@@H]1C	Tyrosine-protein kinase JAK1 (JAK1, Homo sapiens, UniProt P23458)	ATP/ADP probe binding, KiNativ	HEK293T lysate	1 µM, Lys1 peptide domain 2		probe labelling inhibition	24.4%
NC(N)=NCCC[C@H](N)C(=O)Nc1ccc2ccccc2c1	Puromycin-sensitive aminopeptidase (Rattus norvegicus, UniProt F1M9V7)	substrate				Km	3 µM
O=c1cc(CO)occ1[O-].[Cl-].[W+4].c1cc[cH-]c1.c1cc[cH-]c1	ALB	binding, van't Hoff fluorescence quenching		concentration not given		entropy change	60.3 J/(mol K)
CCC[C@@H]1NC(=O)[C@H](Cc2ccc(-c3ccccc3)cc2)NC(=O)[C@H](CC(C)C)NC(=O)[C@@H]2CCCN2C(=O)[C@@H](NC(=O)[C@H](CCCNC(=N)N)NC(=O)[C@H](CCCNC(=N)N)NC(C)=O)CSSC[C@@H](C(=O)N[C@@H](CCCNC(=N)N)C(=O)N[C@@H](CCCNC(=N)N)C(N)=O)NC(=O)[C@H](C(C)C)NC(=O)[C@@H]2CCCN2C(=O)[C@H](CC(=O)O)NC(=O)[C@H](Cc2ccc(O)cc2)NC(=O)[C@H](CO)NC1=O	GTPase KRas, GDP-bound (KRAS, Homo sapiens, UniProt P01116, G12D)	affinity selection mass spectrometry		mixture library 1, added: protein titration up to 5 µM	lower is stronger binding	lowest bound protein concentration	0.31 to 0.62 µM
CCc1ccccc1-c1ccc(C(=O)NC[C@@H](N)C(=O)O)s1	Glutamate receptor ionotropic, NMDA 1, with GluN2C (Grin1, Rattus norvegicus, UniProt P35439, V689I)	receptor activation	rat	added: glutamate 300 µM		log EC50	-2.29 µM
c1ccc(Nc2nccc(-c3ccco3)n2)cc1	Adenosine receptor A2a (ADORA2A, Homo sapiens, UniProt P29274)	binding, radioligand competition		30 µM, added: [3H]ZM241385		displacement	37 ± 4%

For quick reference, copied from above:
SMILES	target	test	test system	conditions	how to read	quantity	result
NC(N)=NCCC[C@H](N)C(=O)Nc1ccc2ccccc2c1	Puromycin-sensitive aminopeptidase (Rattus norvegicus, UniProt F1M9V7)	substrate				Km	3 µM
O=c1cc(CO)occ1[O-].[Cl-].[W+4].c1cc[cH-]c1.c1cc[cH-]c1	ALB	binding, van't Hoff fluorescence quenching		concentration not given		entropy change	60.3 J/(mol K)
